{"data": "Assay results gathered from unrelated publications", "note": "Parts stem from different laboratories: compare values within a part only. “And” joins repeats or separate records; there may be more than shown.", "chain of UniProt O14757 (whole entry, looked up)": "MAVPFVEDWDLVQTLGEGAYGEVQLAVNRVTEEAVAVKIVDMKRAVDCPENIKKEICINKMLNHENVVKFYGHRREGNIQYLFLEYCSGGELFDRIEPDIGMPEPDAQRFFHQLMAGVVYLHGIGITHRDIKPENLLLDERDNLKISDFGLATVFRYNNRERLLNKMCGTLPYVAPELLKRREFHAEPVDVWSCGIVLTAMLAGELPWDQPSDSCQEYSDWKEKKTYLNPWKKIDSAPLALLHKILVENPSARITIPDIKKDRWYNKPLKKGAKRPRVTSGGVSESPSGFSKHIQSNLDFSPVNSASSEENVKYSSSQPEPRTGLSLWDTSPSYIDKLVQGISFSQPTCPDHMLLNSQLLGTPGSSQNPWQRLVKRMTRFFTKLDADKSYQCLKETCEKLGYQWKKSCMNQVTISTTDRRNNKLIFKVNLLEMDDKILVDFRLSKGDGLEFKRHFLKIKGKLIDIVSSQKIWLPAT", "chain of UniProt Q12851 (whole entry, looked up)": "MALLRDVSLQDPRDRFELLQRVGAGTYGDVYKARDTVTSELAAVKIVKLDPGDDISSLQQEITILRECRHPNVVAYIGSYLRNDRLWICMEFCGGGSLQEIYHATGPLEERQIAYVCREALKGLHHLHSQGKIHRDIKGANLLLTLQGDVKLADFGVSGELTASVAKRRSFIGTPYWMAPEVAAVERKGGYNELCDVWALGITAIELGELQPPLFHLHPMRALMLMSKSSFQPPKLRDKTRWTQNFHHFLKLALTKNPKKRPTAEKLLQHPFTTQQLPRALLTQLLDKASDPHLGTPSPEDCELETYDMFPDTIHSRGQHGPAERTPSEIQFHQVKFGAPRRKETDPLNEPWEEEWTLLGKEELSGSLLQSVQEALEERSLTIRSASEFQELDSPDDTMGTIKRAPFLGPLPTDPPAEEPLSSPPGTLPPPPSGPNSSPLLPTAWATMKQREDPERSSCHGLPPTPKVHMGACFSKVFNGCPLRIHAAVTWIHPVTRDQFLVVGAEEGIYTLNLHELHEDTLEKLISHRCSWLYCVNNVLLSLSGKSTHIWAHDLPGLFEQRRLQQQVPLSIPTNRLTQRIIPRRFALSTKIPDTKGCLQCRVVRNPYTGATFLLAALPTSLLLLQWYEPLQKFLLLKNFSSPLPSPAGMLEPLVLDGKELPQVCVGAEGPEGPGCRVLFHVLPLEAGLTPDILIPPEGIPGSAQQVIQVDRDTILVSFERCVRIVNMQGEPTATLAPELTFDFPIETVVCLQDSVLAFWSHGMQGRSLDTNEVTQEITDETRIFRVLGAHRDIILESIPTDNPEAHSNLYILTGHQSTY", "chain of UniProt P42336 (whole entry, unmodified, looked up)": "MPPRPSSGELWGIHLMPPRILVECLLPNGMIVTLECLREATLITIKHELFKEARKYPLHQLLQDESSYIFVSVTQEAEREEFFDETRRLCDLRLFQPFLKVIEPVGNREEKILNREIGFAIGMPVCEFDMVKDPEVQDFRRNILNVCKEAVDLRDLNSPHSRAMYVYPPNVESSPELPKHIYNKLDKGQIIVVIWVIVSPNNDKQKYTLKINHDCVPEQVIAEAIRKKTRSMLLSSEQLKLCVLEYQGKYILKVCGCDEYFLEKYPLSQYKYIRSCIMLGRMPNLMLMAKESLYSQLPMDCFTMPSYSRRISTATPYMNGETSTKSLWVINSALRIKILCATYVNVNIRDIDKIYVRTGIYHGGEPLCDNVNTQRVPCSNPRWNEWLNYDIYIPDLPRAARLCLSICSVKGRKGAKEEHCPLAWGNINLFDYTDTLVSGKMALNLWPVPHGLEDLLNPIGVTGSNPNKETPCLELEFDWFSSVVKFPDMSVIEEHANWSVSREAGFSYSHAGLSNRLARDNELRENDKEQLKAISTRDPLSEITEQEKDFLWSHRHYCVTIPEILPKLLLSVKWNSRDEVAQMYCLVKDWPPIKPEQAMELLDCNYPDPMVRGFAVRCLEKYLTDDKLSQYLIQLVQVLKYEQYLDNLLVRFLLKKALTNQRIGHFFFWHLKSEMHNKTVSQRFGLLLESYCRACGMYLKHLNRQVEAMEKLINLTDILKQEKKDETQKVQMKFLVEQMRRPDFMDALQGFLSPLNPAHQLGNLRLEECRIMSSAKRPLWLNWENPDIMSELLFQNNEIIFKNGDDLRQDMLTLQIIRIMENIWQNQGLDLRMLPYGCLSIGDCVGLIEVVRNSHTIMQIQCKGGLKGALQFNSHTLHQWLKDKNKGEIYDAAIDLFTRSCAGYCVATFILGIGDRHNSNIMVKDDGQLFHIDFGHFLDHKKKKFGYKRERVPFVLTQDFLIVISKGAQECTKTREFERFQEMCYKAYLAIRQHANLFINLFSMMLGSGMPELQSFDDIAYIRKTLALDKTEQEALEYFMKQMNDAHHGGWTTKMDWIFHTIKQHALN", "chain of UniProt Q9UM73 (whole entry, unmodified, looked up)": "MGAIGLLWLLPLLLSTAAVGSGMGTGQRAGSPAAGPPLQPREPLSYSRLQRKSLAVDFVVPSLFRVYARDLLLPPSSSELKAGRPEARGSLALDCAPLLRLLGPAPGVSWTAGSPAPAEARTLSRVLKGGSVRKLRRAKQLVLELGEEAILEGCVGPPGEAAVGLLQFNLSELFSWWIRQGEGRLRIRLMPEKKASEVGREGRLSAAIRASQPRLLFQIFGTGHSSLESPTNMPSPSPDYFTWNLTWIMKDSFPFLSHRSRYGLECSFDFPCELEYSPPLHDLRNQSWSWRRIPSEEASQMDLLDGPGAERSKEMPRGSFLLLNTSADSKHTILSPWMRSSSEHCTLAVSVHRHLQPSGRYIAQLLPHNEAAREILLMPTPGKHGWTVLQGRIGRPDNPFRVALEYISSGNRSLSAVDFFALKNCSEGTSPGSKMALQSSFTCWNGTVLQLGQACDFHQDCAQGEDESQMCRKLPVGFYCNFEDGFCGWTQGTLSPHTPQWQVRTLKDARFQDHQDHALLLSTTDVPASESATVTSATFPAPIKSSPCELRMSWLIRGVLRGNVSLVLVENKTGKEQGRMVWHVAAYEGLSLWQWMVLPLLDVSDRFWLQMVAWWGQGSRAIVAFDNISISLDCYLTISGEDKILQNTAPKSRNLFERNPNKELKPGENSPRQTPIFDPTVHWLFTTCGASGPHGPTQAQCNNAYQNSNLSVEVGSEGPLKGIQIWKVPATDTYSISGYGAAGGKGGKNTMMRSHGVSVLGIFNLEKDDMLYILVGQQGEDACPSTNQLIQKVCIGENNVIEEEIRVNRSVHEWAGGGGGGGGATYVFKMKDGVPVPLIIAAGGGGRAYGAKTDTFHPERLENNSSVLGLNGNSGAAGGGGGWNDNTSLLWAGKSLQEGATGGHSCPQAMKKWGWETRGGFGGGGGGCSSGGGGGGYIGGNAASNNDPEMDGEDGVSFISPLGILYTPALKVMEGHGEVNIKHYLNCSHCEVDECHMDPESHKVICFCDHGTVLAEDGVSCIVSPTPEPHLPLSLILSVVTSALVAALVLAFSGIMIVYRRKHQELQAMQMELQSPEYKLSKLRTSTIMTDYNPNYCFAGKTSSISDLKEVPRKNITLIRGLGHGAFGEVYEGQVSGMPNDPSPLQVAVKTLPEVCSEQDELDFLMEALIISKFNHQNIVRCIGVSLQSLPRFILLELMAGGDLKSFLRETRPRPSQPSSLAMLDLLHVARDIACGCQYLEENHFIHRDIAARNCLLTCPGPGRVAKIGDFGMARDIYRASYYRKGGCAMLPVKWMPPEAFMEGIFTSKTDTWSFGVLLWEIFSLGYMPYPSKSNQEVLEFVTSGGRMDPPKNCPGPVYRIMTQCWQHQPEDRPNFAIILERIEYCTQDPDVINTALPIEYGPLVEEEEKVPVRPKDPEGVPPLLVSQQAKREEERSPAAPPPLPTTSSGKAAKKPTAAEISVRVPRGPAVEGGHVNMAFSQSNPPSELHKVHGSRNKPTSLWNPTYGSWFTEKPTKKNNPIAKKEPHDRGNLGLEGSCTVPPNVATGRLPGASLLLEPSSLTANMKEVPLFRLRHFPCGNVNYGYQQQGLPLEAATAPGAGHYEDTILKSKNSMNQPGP", "chain of UniProt Q9NWZ3 (whole entry, looked up)": "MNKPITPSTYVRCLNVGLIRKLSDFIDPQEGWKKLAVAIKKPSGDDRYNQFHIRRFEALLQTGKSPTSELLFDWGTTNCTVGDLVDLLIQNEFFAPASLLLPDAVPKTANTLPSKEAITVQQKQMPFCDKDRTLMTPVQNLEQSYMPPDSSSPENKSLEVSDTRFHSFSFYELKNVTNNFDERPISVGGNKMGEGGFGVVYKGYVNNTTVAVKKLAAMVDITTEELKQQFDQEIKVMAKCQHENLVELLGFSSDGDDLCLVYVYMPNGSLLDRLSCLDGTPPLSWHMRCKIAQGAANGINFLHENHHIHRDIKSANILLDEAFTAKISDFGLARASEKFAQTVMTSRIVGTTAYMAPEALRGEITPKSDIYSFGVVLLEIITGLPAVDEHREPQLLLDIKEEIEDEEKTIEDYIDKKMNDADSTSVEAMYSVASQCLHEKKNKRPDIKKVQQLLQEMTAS"}
{"data": "Sample 1", "Structure (SMILES)": "C[C@H](c1cccc(C#N)c1)n1cc(Cl)cc(C(N)=O)c1=N", "effect on": "cell-free assay", "method": "competition with immobilised ligand", "concentration": "1 µM"}
{"target": "PAK5 (Homo sapiens, UniProt Q9P286)", "remaining binding [%]": 100}
{"target": "MERTK (Homo sapiens, UniProt Q12866)", "remaining binding [%]": 96}
{"target": "EIF2AK1 (Homo sapiens, UniProt Q9BQI3)", "remaining binding [%]": 100}
{"target": "NEK10 (Homo sapiens, UniProt Q6ZWH5)", "remaining binding [%]": 99}
{"target": "ALK (Homo sapiens, UniProt Q9UM73, L1196M)", "remaining binding [%]": 76}
{"target": "ACVR2B (Homo sapiens, UniProt Q13705)", "remaining binding [%]": 100}
{"target": "BMP2K (Homo sapiens, UniProt Q9NSY1)", "remaining binding [%]": 100}
{"target": "Non-receptor tyrosine-protein kinase TYK2, JH2 (TYK2, Homo sapiens, UniProt P29597)", "remaining binding [%]": 75}
{"target": "CDK8 (Homo sapiens, UniProt P49336)", "remaining binding [%]": 100}
{"target": "RIOK2 (Homo sapiens, UniProt Q9BVS4)", "remaining binding [%]": 74}
{"target": "Ribosomal protein S6 kinase alpha-6, C-terminal kinase domain (RPS6KA6, Homo sapiens, UniProt Q9UK32)", "remaining binding [%]": 100}
{"target": "Tyrosine-protein kinase ABL1, non-phosphorylated (ABL1, Homo sapiens, UniProt P00519, H396P)", "remaining binding [%]": 55}
{"target": "STK10 (Homo sapiens, UniProt O94804)", "remaining binding [%]": 100}
{"target": "Tyrosine-protein kinase JAK3, JH1 (JAK3, Homo sapiens, UniProt P52333)", "remaining binding [%]": 94}
{"target": "PIK3CA (Homo sapiens, UniProt P42336, H1047Y)", "remaining binding [%]": 95}
{"target": "EPHB2 (Homo sapiens, UniProt P29323)", "remaining binding [%]": 66}
{"target": "MAP4K1 (Homo sapiens, UniProt Q92918)", "remaining binding [%]": 100}
{"data": "Sample 2", "target": "Beta-1 adrenergic receptor (ADRB1, Homo sapiens, UniProt P08588)", "mode": "agonist", "chain of UniProt P08588 (whole entry, looked up)": "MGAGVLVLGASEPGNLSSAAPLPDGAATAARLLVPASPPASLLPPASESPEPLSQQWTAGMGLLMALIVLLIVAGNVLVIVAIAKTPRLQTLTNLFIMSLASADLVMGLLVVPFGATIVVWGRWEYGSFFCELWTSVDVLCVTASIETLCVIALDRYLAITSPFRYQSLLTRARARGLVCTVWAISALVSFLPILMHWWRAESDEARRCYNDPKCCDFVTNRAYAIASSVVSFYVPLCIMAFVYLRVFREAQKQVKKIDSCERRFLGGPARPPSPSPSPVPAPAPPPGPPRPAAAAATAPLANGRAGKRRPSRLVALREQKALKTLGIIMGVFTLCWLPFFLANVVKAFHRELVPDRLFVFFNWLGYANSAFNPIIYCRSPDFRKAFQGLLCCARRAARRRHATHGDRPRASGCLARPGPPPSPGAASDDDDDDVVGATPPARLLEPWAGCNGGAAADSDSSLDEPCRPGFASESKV"}
{"SMILES": "Fc1ccc(-c2c[nH]c([C@@H]3COCCN3Cc3cnc4ccccc4c3)n2)cc1", "EC50": "≥ 100 µM"}
{"SMILES": "Cc1cc(F)ccc1-c1n[nH]c2ncc(-c3ccsc3)nc12", "EC50": "≥ 100 µM"}
{"SMILES": "CN1CCN(CC(O)COc2cccc3[nH]ccc23)c2ccccc21 (centres unmarked)", "EC50": "≥ 100 µM"}
{"SMILES": "Cc1nc(Nc2n[nH]c3c2CN(C(=O)N[C@H](CN(C)C)c2ccccc2)C3(C)C)c2sccc2n1", "EC50": "≥ 100 µM"}
{"SMILES": "O=C(COc1ccccc1)Nc1ccc([C@@H](O)[C@H]2COCC(=O)N2CC2CC2)cc1", "EC50": "≥ 100 µM"}
{"data": "Sample 3", "SMILES": "CSc1nc(-c2ccnc(N[C@@H](C)c3ccccc3)c2)c(-c2ccc(F)cc2)[nH]1 (racemic)", "effect on": "enzyme activity", "mode": "inhibitor", "concentration": "0.5 µM", "reference": "control"}
{"target": "PRKCD (Homo sapiens, UniProt Q05655)", "remaining activity": "89.1%"}
{"target": "STK38 (Homo sapiens, UniProt Q15208)", "remaining activity": "104%"}
{"target": "MKNK2 (Homo sapiens, UniProt Q9HBH9)", "remaining activity": "105%"}
{"target": "AKT3 (Homo sapiens, UniProt Q9Y243)", "remaining activity": "91.5%"}
{"target": "PLK2 (Homo sapiens, UniProt Q9NYY3)", "remaining activity": "94.3%"}
{"target": "LRRK2 (Homo sapiens, UniProt Q5S007)", "remaining activity": "100%"}
{"target": "CSNK2A1 (Homo sapiens, UniProt P68400)", "remaining activity": "100%"}
{"target": "LYN (Homo sapiens, UniProt P07948)", "remaining activity": "98.5%"}
{"target": "MAPK13 (Homo sapiens, UniProt O15264)", "remaining activity": "93.9%"}
{"target": "IRAK4 (Homo sapiens, UniProt Q9NWZ3)", "remaining activity": "82.6%"}
{"target": "CHEK1 (Homo sapiens, UniProt O14757)", "remaining activity": "101%"}
{"target": "NEK4 (Homo sapiens, UniProt P51957)", "remaining activity": "102%"}
{"target": "KIT (Homo sapiens, UniProt P10721)", "remaining activity": "92.4%"}
{"target": "MAP2K6 (Homo sapiens, UniProt P52564)", "remaining activity": "80.5%"}
{"target": "CSNK1A1 (Homo sapiens, UniProt P48729)", "remaining activity": "82.6%"}
{"target": "Cyclin-dependent kinase 9, with cyclin T1 (CDK9, Homo sapiens, UniProt P50750)", "remaining activity": "99.1%"}
{"target": "BTK (Homo sapiens, UniProt Q06187)", "remaining activity": "76.6%"}
{"target": "MAP3K10 (Homo sapiens, UniProt Q02779)", "remaining activity": "90.6%"}
{"target": "MAP4K2 (Homo sapiens, UniProt Q12851)", "remaining activity": "82.5%"}
{"target": "EPHA5 (Homo sapiens, UniProt P54756)", "remaining activity": "106%"}
{"target": "WNK2 (Homo sapiens, UniProt Q9Y3S1)", "remaining activity": "118%"}
{"data": "Single results of other studies"}
{"Compound": "O=C1CCC(N2Cc3cc(C4CCN(Cc5ccccc5)CC4)ccc3C2=O)C(=O)N1 (centres unmarked)", "cell line": "Jurkat", "concentration": "1 nM", "time": "24 h", "with": "CD3/CD28 beads, 1:4", "quantity": "IL-2 level", "value": "98.8 pg/mL and 134 pg/mL and 89.4 pg/mL"}
{"note": "For quick reference, copied from above (sample 3):"}
{"target": "LYN (Homo sapiens, UniProt P07948)", "remaining activity": "98.5%"}
{"target": "MAPK13 (Homo sapiens, UniProt O15264)", "remaining activity": "93.9%"}
{"target": "IRAK4 (Homo sapiens, UniProt Q9NWZ3)", "remaining activity": "82.6%"}
